Published values from different studies.
Each numbered part is a random draw from the data of one study; scales do not carry over between parts. Substitutions count along the parent as printed.

Sample 1
Target: ABI1, truncated, D143A, DHFR fusion (Arabidopsis thaliana)
Method: DHFR PCA, deep sequencing
Sample: yeast
Notes: methotrexate growth selection, single substitutions
With: (+)-ABA 0 µM
Reference: wild-type fitted maximum
Direction: higher = stronger binding
Starting sequence: PYL1, truncated, DHFR fusion (Arabidopsis thaliana); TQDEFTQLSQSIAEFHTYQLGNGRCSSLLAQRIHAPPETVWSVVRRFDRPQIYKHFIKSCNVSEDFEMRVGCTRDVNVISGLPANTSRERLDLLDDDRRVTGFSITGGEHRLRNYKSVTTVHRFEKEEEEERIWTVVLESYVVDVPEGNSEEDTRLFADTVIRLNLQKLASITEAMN
Variant	relative binding score
Y53R	9.1%
L91N	1.15%
P50M	-3.91%
G71M	2.12%
E129W	5.49%
K116P	-0.153%
R98H	-4.23%

Sample 2
Target: Prothrombin, mature alpha-thrombin (F2, Homo sapiens, UniProt P00734)
Method: aptamer microarray, sandwich
Molecule type: DNA with 2'F-ANA
Sample: in vitro
Concentration: 200 nM
Notes: whole 15-mer aptamer, many near background
With: Cy3 exosite-II aptamer, 400 nM
Direction: higher = stronger binding
Sequence: GGTTGGTGTGGTTGG
Modification	mean fluorescence intensity
2'F-ANA at 1 3 7 8 9 11 13	305 a.u.
2'F-ANA at 1 2 3 10 12 14 15	52.3 a.u.
2'F-ANA at 2 3 8 9 10 12 14 15	314 a.u.
2'F-ANA at 1 3 4 5 8 10 12 15	59.5 a.u.
2'F-ANA at 1 2 3 4 5 6 8 9 11 12 13	70.5 a.u.
2'F-ANA at 1 3 4 6 7 10 12 13	65.9 a.u.
2'F-ANA at 5 6 7 9 10 12 13 14	46.4 a.u.
2'F-ANA at 2 3 4 5 6 7 12 13 14	47.7 a.u.
2'F-ANA at 1 5 7 11 12 13 14	88.3 a.u.
2'F-ANA at 1 3 5 8 9 10 11 14	44 a.u.

Sample 3
Target: CCNB3, cyclin fold, Cln2 fusion (human)
Method: yeast growth competition, sequencing
Sample: yeast
Notes: weak parent motif
Reference: not given
Direction: higher = stronger binding
Starting sequence: CUX1 docking peptide (human); SRIRRELFIEEIQ; partner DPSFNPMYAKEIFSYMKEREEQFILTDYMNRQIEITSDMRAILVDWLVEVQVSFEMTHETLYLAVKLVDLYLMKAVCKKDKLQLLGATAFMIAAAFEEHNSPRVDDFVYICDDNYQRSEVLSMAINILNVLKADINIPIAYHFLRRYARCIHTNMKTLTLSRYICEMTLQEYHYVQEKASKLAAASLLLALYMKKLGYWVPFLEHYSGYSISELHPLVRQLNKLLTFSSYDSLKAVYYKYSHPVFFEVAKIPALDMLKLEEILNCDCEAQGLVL
Variant	normalised enrichment score
R4A	-0.0911
E6A	1.11
E10A	0.366
F8A	0.509
I9A	-0.153
R5K F8L	0.273
S1A	0.243

Other studies, line by line
Substance	target	assay	test system	setting	how to read	quantity	value
PhoQ, residues 284 288 289 292 302 303 TNASYF	PhoP, residues 12 14 15 18 19 LHSVQ (Escherichia coli, UniProt P23836)	Sort-seq, measured: YFP reporter	E. coli	PhoQ-PhoP variant library, with: 10 µM Mg2+	reference: high Mg2+ state, higher = stronger signaling	fold induction	9.86
